# Published values of several laboratories.
# Parts stem from different laboratories: compare values within a part only. “And” joins repeats or separate records; there may be more than shown.
# UniProt O75914, sequence (whole entry, looked up): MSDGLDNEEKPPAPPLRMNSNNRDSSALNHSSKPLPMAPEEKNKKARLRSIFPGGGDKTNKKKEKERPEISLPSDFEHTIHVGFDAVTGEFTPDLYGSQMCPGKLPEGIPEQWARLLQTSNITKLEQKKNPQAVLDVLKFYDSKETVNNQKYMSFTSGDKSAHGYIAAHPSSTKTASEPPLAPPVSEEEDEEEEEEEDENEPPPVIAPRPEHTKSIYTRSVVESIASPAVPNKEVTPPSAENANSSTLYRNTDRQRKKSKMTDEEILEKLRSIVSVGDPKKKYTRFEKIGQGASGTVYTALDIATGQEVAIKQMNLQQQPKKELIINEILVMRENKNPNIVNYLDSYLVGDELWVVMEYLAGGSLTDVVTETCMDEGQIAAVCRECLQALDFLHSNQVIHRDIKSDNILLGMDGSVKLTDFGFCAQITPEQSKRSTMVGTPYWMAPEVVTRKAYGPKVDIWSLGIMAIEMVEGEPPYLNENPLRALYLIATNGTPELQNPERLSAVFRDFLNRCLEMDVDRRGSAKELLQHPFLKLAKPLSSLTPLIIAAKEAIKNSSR
# UniProt Q00526, sequence (whole entry, looked up): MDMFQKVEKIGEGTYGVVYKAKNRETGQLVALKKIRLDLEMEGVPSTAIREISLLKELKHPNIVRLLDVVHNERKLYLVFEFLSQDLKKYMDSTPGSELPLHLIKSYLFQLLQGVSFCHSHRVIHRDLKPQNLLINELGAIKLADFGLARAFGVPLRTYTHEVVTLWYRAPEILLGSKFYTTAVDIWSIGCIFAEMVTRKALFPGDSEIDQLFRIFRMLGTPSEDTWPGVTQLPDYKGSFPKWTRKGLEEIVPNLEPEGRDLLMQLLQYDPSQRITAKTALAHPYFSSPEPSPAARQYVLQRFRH
# UniProt Q15418, sequence (whole entry, looked up): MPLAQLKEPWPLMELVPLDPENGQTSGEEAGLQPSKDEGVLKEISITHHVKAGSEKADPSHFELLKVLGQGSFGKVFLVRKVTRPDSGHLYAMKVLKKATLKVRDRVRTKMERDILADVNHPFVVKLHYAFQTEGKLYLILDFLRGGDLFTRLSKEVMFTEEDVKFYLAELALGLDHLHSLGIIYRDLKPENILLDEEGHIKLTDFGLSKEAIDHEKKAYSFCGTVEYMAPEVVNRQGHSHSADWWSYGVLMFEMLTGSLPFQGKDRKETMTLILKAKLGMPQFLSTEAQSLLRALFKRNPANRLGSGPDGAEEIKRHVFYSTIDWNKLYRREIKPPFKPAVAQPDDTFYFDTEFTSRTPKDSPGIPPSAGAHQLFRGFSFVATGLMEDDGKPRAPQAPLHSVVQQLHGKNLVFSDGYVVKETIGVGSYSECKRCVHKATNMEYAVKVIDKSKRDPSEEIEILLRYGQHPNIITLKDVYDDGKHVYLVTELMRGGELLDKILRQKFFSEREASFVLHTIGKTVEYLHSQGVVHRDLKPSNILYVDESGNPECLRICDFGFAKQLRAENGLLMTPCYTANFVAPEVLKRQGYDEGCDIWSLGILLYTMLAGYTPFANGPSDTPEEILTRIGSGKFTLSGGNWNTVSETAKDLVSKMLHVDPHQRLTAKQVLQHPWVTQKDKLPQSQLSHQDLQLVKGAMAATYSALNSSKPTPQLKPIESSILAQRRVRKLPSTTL
# UniProt Q96PN8, sequence (whole entry, looked up): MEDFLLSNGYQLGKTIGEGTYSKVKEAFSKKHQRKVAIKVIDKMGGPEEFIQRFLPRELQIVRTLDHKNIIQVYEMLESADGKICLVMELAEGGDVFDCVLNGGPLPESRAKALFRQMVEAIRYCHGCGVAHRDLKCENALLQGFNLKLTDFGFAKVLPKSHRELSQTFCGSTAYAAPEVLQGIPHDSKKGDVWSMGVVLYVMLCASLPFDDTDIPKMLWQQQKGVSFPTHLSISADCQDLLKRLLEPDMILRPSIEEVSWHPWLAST

# Set 1
# Target: G protein-coupled receptor kinase 6 (GRK6, Homo sapiens, UniProt P43250)
# UniProt P43250, sequence (whole entry, looked up): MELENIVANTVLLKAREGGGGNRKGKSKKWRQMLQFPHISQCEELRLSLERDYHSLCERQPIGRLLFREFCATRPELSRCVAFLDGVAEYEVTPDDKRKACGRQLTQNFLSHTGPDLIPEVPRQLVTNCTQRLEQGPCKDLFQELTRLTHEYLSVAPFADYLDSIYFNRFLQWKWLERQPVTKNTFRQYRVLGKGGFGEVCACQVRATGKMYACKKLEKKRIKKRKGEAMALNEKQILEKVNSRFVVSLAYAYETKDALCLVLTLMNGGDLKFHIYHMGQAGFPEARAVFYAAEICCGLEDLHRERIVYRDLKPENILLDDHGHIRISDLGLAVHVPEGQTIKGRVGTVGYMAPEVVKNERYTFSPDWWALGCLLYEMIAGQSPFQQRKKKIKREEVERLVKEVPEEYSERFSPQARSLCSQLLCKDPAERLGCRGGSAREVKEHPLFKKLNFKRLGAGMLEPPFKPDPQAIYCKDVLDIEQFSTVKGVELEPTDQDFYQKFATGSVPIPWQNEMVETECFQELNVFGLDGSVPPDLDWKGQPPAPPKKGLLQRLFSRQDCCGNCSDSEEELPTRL
# Effect on: enzyme activity
# Action: inhibitor
# Tested at: 0.5 µM
# Baseline: control
Compound,remaining activity [%]
Cc1cn(-c2cc(NC(=O)c3ccc(C)c(Nc4nccc(-c5cccnc5)n4)c3)cc(C(F)(F)F)c2)cn1,108
c1ccc(-c2cnc(Nc3ccc(OCCN4CCCC4)cc3)s2)cc1,96.1
CCOc1nc(NC(=O)Cc2cc(OC)ccc2OC)cc(N)c1C#N,98.9
COc1cc2c(cc1OC)-c1[nH]nc(Nc3cccc(F)c3)c1C2,89.4
Nc1cccc(-c2cc3c(Oc4cccc(O)c4)ncnc3[nH]2)c1,98
Cc1cc2ncc(-c3ccccc3)nc2cc1C,103
Cc1nc2cc3nc(-c4cccs4)cnc3cc2n1C,104

# Set 2
# Target: DNA polymerase theta, ATPase domain (POLQ, Homo sapiens, UniProt O75417)
# UniProt O75417, sequence (whole entry, unmodified, looked up): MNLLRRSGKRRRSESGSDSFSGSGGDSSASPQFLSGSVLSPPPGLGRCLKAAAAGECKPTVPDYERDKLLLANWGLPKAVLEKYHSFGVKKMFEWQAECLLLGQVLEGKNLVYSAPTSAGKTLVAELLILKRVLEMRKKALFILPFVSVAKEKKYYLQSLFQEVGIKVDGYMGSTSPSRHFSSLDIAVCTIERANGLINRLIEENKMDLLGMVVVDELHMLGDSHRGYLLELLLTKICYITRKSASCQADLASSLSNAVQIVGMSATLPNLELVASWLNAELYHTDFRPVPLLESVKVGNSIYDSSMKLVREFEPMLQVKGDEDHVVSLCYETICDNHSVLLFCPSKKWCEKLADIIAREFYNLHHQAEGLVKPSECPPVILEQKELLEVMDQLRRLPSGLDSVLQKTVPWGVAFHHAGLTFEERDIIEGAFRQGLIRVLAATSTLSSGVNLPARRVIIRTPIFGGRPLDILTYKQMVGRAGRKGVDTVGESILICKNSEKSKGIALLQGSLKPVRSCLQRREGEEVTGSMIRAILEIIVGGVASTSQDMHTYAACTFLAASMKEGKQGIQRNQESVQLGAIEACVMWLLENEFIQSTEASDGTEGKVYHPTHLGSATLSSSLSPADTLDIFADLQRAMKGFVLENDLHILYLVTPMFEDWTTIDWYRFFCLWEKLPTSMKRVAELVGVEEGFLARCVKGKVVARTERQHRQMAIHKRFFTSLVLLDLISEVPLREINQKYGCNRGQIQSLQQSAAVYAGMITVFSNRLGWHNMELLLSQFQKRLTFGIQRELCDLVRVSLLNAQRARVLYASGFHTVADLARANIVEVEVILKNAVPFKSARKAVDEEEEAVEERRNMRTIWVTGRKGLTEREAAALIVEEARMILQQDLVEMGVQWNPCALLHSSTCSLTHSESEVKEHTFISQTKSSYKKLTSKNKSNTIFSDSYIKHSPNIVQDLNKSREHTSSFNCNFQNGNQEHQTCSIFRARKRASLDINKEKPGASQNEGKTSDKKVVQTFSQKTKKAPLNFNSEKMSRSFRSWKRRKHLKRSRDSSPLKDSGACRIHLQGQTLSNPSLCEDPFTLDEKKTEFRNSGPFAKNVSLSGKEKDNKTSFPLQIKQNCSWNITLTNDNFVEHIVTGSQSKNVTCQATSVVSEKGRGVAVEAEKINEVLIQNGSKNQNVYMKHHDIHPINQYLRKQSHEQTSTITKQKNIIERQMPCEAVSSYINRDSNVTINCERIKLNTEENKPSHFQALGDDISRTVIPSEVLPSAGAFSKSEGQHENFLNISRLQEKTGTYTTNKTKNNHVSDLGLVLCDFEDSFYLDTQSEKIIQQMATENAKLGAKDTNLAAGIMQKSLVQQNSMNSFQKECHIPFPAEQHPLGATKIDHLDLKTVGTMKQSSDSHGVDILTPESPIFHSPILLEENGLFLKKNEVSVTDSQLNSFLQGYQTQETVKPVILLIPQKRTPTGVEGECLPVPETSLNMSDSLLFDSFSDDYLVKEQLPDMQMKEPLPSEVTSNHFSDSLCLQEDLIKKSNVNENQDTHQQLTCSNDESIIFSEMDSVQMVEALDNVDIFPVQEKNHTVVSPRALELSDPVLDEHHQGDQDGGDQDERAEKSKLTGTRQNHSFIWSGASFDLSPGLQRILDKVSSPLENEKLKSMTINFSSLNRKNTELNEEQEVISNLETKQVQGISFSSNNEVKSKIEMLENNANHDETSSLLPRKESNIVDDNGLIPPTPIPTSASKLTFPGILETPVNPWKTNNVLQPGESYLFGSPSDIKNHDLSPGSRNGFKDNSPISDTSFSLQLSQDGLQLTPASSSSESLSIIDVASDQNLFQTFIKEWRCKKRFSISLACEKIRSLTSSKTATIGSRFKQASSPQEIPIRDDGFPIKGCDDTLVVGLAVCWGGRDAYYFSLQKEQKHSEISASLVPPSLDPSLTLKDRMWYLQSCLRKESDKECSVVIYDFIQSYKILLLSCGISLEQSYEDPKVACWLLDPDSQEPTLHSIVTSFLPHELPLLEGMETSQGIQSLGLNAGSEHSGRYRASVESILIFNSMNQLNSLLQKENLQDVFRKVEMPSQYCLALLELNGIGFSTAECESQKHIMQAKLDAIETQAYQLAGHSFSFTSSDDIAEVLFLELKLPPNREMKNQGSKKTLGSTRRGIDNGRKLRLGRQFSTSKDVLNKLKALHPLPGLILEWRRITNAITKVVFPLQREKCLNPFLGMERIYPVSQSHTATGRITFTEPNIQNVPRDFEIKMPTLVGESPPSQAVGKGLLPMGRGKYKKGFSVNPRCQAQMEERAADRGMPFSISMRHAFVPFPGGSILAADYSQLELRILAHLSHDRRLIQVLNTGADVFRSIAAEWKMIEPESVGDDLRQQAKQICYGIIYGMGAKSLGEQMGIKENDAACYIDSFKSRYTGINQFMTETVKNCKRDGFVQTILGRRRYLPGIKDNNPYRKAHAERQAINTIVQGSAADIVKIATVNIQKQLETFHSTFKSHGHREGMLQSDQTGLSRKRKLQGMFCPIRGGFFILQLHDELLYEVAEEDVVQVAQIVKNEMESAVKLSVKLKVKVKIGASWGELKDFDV
# Effect on: enzyme activity
# Action: inhibitor
# Tested at: 77 µM
# Baseline: untreated
SMILES,remaining activity
O=C(Nc1ccc2c(c1)CCN(Cc1ncn[nH]1)C2)c1ccccc1-c1ccc(C(F)(F)F)cc1,98.5%
CC(C)C[C@H](NC(=O)[C@@H]1O[C@H]1C(=O)O)C(=O)NCCCCN=C(N)N,99.1%
c1ccc(-c2ccccn2)nc1,101%
Clc1ccccc1CN1CCc2sccc2C1,101%
CCOC(=O)c1c(CSc2ccccc2)n(C)c2cc(Br)c(O)c(CN(C)C)c12,98.5%
Cn1sc(=O)n(Cc2ccccc2)c1=O,102%
CC(C)(C)c1cc(NC(=O)Nc2ccc(-c3cn4c(n3)sc3cc(OCCN5CCOCC5)ccc34)cc2)no1,105% and 101% and 106% and 99.7%
COc1ccc(O)cc1,91.1%
NCC(=O)CCC(=O)O,101%
Cc1cccc(-c2nn3c(c2-c2ccnc4ccc(C(N)=O)cc24)CCC3)n1,103%

# Set 3
# Compound: CN(C)C(=O)Cn1cc(-c2nc([C@@](C)(c3ccc(-c4cnc(N)nc4)cc3)C3CC3)no2)cn1
# Effect on: cell-free assay
# Technique: competition with immobilised ligand
# Tested at: 1 µM
target,remaining binding
"Testis-specific serine/threonine-protein kinase 3 (TSSK3, Homo sapiens, UniProt Q96PN8)",68%
"Ribosomal protein S6 kinase alpha-1, C-terminal kinase domain (RPS6KA1, Homo sapiens, UniProt Q15418)",99%
"Serine/threonine-protein kinase SIK3 (SIK3, Homo sapiens, UniProt Q9Y2K2)",70%
"Serine/threonine-protein kinase WNK2 (WNK2, Homo sapiens, UniProt Q9Y3S1)",100%
"Serine/threonine-protein kinase D1 (PRKD1, Homo sapiens, UniProt Q15139)",100%
"Interleukin-1 receptor-associated kinase 4 (IRAK4, Homo sapiens, UniProt Q9NWZ3)",85%
"Mitogen-activated protein kinase kinase kinase 10 (MAP3K10, Homo sapiens, UniProt Q02779)",83%
"Peripheral plasma membrane protein CASK (CASK, Homo sapiens, UniProt O14936)",82%
"Serine/threonine-protein kinase PAK 3 (PAK3, Homo sapiens, UniProt O75914)",87%
"Serine/threonine-protein kinase ULK3 (ULK3, Homo sapiens, UniProt Q6PHR2)",86%
"Ephrin type-B receptor 4 (EPHB4, Homo sapiens, UniProt P54760)",100%
"Phosphatidylinositol 4,5-bisphosphate 3-kinase catalytic subunit alpha isoform (PIK3CA, Homo sapiens, UniProt P42336)",96%
"Cyclin-dependent kinase 3 (CDK3, Homo sapiens, UniProt Q00526)",100%
"NUAK family SNF1-like kinase 2 (NUAK2, Homo sapiens, UniProt Q9H093)",83%
"Ribosomal protein S6 kinase alpha-5, N-terminal kinase domain (RPS6KA5, Homo sapiens, UniProt O75582)",93%
"Serine/threonine-protein kinase PAK 4 (PAK4, Homo sapiens, UniProt O96013)",96%
"Calcium/calmodulin-dependent protein kinase kinase 1 (CAMKK1, Homo sapiens, UniProt Q8N5S9)",100%
"Serine/threonine-protein kinase 25 (STK25, Homo sapiens, UniProt O00506)",100%

# Set 4
# Species: human
# Sample: microsomes or S9
# Tested at: 2 µM
# Time: 0.5 h
SMILES,remaining compound [%]
CCc1cc2c(nc(-c3ccccc3)n3nnnc23)s1,92.9
Cn1cc(S(=O)(=O)Nc2nc3ccccc3nc2Nc2cc(Cl)ccc2O)cn1,40.8
CCO[C@H]1CN(Cc2cccc(F)c2OC)C[C@@H]1O,71.8
O=C(c1ccc(Cn2ccn3nc4c(c3c2=O)CCCC4)cc1)N1CCN(c2ccccc2F)CC1,34.6
OC(Cc1c[nH]c2ccccc12)(c1ccccc1)c1ccccc1,95.9
Cc1ccc(OCCCCN(C)C)c(C(C)(C)C)c1,70.3
C[C@H]1CCCC(=O)CCCCCc2cc(OCc3ccccc3)cc(O)c2C(=O)O1,64
CC1NC(=O)CCC1NS(=O)(=O)c1cccc2ccoc12 (stereo not shown),62.9
Fc1ccc(-c2n[nH]cc2Cn2cnc(-c3ccccc3)c2-c2ncc[nH]2)cc1,17.1
CCOC(=O)C1=C(O)CN(Cc2ccc(F)cc2)C1=O,89.2
CC(Oc1ccccc1)C(=O)Nc1c(-c2ccccc2)nc2sccn12 (stereo not shown),10.7

# A few entries again (set 3):
target,remaining binding
"Serine/threonine-protein kinase ULK3 (ULK3, Homo sapiens, UniProt Q6PHR2)",86%
"Calcium/calmodulin-dependent protein kinase kinase 1 (CAMKK1, Homo sapiens, UniProt Q8N5S9)",100%
"Serine/threonine-protein kinase PAK 4 (PAK4, Homo sapiens, UniProt O96013)",96%
"Interleukin-1 receptor-associated kinase 4 (IRAK4, Homo sapiens, UniProt Q9NWZ3)",85%
"Serine/threonine-protein kinase SIK3 (SIK3, Homo sapiens, UniProt Q9Y2K2)",70%
"Serine/threonine-protein kinase D1 (PRKD1, Homo sapiens, UniProt Q15139)",100%
"Peripheral plasma membrane protein CASK (CASK, Homo sapiens, UniProt O14936)",82%
